Results pooled from the literature.
Each line is one published result; not all experiments were run side by side.
Organism: Escherichia coli

| SMILES | test | system | setting | MIC |
| --- | --- | --- | --- | --- |
| O=C(Cc1ccccc1)N[C@@H]1C(=O)N2C(C(=O)O)=C(CSc3cccc4cccnc34)CS(=O)(=O)[C@H]12 | – | 2018-015 | – | > 128 µg/mL |
| Cc1c(CN(C)C(=O)/C=C/c2cnc3c(c2)CC(NC(=O)OC(C)(C)C)C(=O)N3)oc2ccccc12 (stereo not drawn) | broth microdilution | AR-0541 | – | > 32 µg/mL |
| CC[C@H](C)CCCCC(=O)N[C@@H](CCN)C(=O)N[C@H](C(=O)N[C@@H](CCN)C(=O)N[C@H]1CCNC(=O)[C@H]([C@@H](C)O)NC(=O)[C@H](CCN)NC(=O)[C@H](CCN)NC(=O)[C@H](CC(C)C)NC(=O)[C@@H](CC(C)C)NC(=O)[C@H](CCN)NC1=O)[C@@H](C)O | broth microdilution | ATCC 25922 | 18 to 20 h | 0.5 µg/mL |
| CC(C)Oc1c(NC(=O)c2ccc(NC(=O)[C@H](CC(N)=O)NC(=O)c3cc(F)c(/N=N/c4c(F)cccc4F)c(F)c3)cc2)ccc(C(=O)N/N=C/c2ccc(C(=O)O)s2)c1O | – | BW25113 | after 1 h irradiation at 450 nm | > 6.4 µg/mL |
| CC1(C)S[C@@H]2[C@H](NC(=O)C(C(=O)O)c3ccccc3)C(=O)N2[C@H]1C(=O)O (stereo partly drawn) | broth microdilution | BW25113 wild type | 18 h | 6.25 µg/mL |
| c1ccc2[nH]c(CNCC34CC5CC(CC(C5)C3)C4)nc2c1 | – | ATCC 25922 | – | > 128 µg/mL |
| COC(=O)[C@H]1[C@H]2C[C@@H]3c4[nH]c5cc(OC)ccc5c4CCN3C[C@H]2C[C@@H](OC(=O)c2cc(OC)c(OC)c(OC)c2)[C@@H]1OC | – | tetracycline-resistant (pBR322) | – | > 128 µM |
| CO/N=C(\C(=O)N[C@@H]1C(=O)N2C(C(=O)[O-])=C(C[N+]3(C)CCCC3)CS[C@H]12)c1csc(N)n1 | broth microdilution | ATCC 25922 | ambient air | 0.03 µg/mL |
| C=C[C@]1(C)C[C@@H](OC(=O)CSC(C)(C)CNC(=O)[C@H](N)C(C)C)[C@]2(C)[C@H](C)CC[C@]3(CCC(=O)[C@H]32)[C@@H](C)[C@@H]1O | – | ATCC 25922 | – | > 40 µM |
| CN(C)c1ccc(O)c2c1C[C@H]1C[C@H]3[C@H](N(C)C)C(O)=C(C(N)=O)C(=O)[C@@]3(O)C(O)=C1C2=O | broth microdilution | ATCC 25922 | 5% CO2 | 0.25 µg/mL |
| CO[C@H]1/C=C/O[C@@]2(C)Oc3c(C)c(O)c4c(O)c(c(/C=N/N5CCN(C)CC5)c(O)c4c3C2=O)NC(=O)/C(C)=C\C=C\[C@H](C)[C@H](O)[C@@H](C)[C@@H](O)[C@@H](C)[C@H](OC(C)=O)[C@@H]1C | broth microdilution OD600 | Mueller-Hinton broth | 24 h, 37 °C, with: 150 mM NaCl | 8 µM |
| CC[C@H](C)[C@H](NC(=O)[C@H](CCCCN)NC(=O)[C@H](CCC(=O)O)NC(=O)CNC(=O)CNC(=O)[C@H](CCCCN)NC(=O)[C@H](CCCNC(=N)N)NC(=O)[C@H](CC(C)C)NC(=O)[C@H](CC(C)C)NC(=O)CN)C(=O)NCC(=O)N[C@@H](CCC(=O)O)C(=O)N[C@@H](CCCCN)C(=O)N[C@@H](CC(C)C)C(=O)N[C@@H](CCCCN)C(=O)N[C@@H](CCCCN)C(=O)N[C@H](C(=O)NCC(=O)N[C@@H](CCC(N)=O)C(=O)N[C@@H](CCCCN)C(=O)N[C@H](C(=O)N[C@@H](CCCCN)C(=O)N[C@@H](CC(N)=O)C(=O)N[C@@H](Cc1ccccc1)C(=O)N[C@@H](Cc1ccccc1)C(=O)N[C@@H](CCC(N)=O)C(=O)N[C@@H](CCCCN)C(=O)N[C@@H](CC(C)C)C(=O)N[C@H](C(=O)N1CCC[C@H]1C(=O)N[C@@H](CCC(N)=O)C(=O)N1CCC[C@H]1C(=O)N[C@@H](CCC(=O)O)C(=O)N[C@@H](CCC(N)=O)C(=O)O)C(C)C)[C@@H](C)CC)[C@@H](C)CC | broth microdilution | ATCC 25922 | – | 33 µM |
| CNC(C)C1CCC(N)C(OC2C(N)CC(N)C(OC3OCC(C)(O)C(NC)C3O)C2O)O1 (stereo not drawn) | broth microdilution | ATCC 25922 | 5% CO2 | 2 µg/mL |
| O=C1CN(/N=C/c2ccc([N+](=O)[O-])o2)C(=O)N1 | broth microdilution | – | 18 h | 8 µg/mL |
| CO[C@H]1/C=C/O[C@@]2(C)Oc3c(C)c(O)c4c(O)c(c(/C=N/N5CCN(C6CCCC6)CC5)c(O)c4c3C2=O)NC(=O)/C(C)=C\C=C\[C@H](C)[C@H](O)[C@@H](C)[C@@H](O)[C@@H](C)[C@H](OC(C)=O)[C@@H]1C | – | ATCC 25922 | – | 5 µM |
| CN(C)c1ccc2nc3ccc(=[N+](C)C)cc-3sc2c1 | – | ATCC BAA-196, resistant | 18 h, 37 °C, dark | > 128 µM |
| N=C(N)c1ccc(OCc2ccc(-c3ccccc3)cc2COc2ccc(C(=N)N)cc2)cc1 | – | mcr-3 polymyxin-resistant | compound alone | > 100 µg/mL |

| SMILES | test | system | setting | MIC |
| --- | --- | --- | --- | --- |
| Cc1c(CN(C)C(=O)/C=C/c2cnc3c(c2)CC(CCN)C(=O)N3)oc2ccccc12.Cl (stereo not drawn) | broth microdilution | AR-0349 | – | 2 µg/mL |
| CO[C@H]1/C=C/O[C@@]2(C)Oc3c(C)c(O)c4c(O)c(c(/C=N/Nc5cccc(Cl)c5)c(O)c4c3C2=O)NC(=O)/C(C)=C/C=C/[C@H](C)[C@H](O)[C@@H](C)[C@@H](O)[C@@H](C)[C@H](OC(C)=O)[C@H]1C | – | ATCC 25922 | – | 20 µM |
| CCn1cc(C(=O)O)c(=O)c2cc(F)c(N3CCNCC3)cc21 | broth microdilution | G92 | 18 h | 0.25 µg/mL |
| CCCCCCCCCCCC[N+](C)(C)Cc1ccccc1.[Br-] | two-fold serial dilution | ATCC 8739 | dark or light not distinguished | > 640 µM |
| C=C[C@]1(C)C[C@@H](OC(=O)CS[C@@H]2CC[C@@H](N)C[C@H]2O)[C@]2(C)[C@H](C)CC[C@]3(CCC(=O)[C@H]32)[C@@H](C)[C@@H]1O | – | ATCC 25922 | – | > 40 µM |
| N=C(N)c1ccc(OCc2ccc(COc3ccc(C(=N)N)cc3)cc2)cc1 | – | BW25113 | compound alone | 200 µg/mL |
| CC1COc2c(N3CCN(C)CC3)c(F)cc3c(=O)c(C(=O)O)cn1c23 (stereo not drawn) | broth microdilution | – | 18 h | 0.0625 µg/mL |
| CC(C)Oc1c(NC(=O)c2ccc(N3C(=O)C[C@H](NC(=O)c4cc(F)c(/N=N/c5c(F)cccc5F)c(F)c4)C3=O)cc2)ccc(C(=O)N/N=C/c2c(Cl)cncc2Cl)c1O | – | BW25113 | after 1 h irradiation at 365 nm | > 6.4 µg/mL |
| C/C(=N/NC(=O)c1cn(-c2ccccc2)nc1-c1ccccc1)c1c(O)cc(C)oc1=O | – | DH5α | – | 300 µg/mL |
| CCC(=O)O[C@@H]1CC(=O)O[C@H](C)C/C=C/C=C/[C@H](O)[C@H](C)C[C@H](CC=O)[C@H](O[C@@H]2O[C@H](C)[C@@H](O[C@H]3C[C@@](C)(O)[C@@H](OC(=O)CC)[C@H](C)O3)[C@H](N(C)C)[C@H]2O)[C@H]1OC | – | ATCC 25922 | – | 640 µM |
| C[C@@H](O)[C@H]1C(=O)N2C(C(=O)O)=C(S[C@@H]3CN[C@H](C(=O)N(C)C)C3)[C@H](C)[C@H]12 | broth microdilution | ATCC 25922 | compound alone | 0.03 µg/mL |
| N=C(N)c1ccccc1OCc1ccccc1COc1ccccc1C(=N)N | – | BW25113 | compound alone, rifampicin checkerboard | > 200 µg/mL |
| NC[C@H]1O[C@H](O[C@H]2[C@H](O)[C@@H](O[C@H]3O[C@H](CO)[C@@H](O)[C@H](N)[C@H]3O)[C@H](N)C[C@@H]2N)[C@H](N)C[C@@H]1O | – | ATCC 25922 | – | 2.5 µM |
| C[C@@H](O)[C@H]1C(=O)N2C(C(=O)O)=C(S[C@@H]3CN[C@H](C(=O)N(C)C)C3)[C@H](C)[C@H]12 | broth microdilution, MH medium | K1 ATCC 700973 | 16 h, 37 °C, growth inhibition over 99% | 0.5 µM |
| Cn1nnc(-c2ccc(-c3ccc(N4C[C@H](CO)OC4=O)cc3F)cn2)n1 | broth microdilution | – | compound alone | 2.5 µM |
| N=C(N)c1ccc(OCc2ccccc2COc2ccc(C(=N)N)cc2)cc1 | – | BW25113 | compound alone, vancomycin checkerboard | > 200 µg/mL |

Excerpt of the above:
| SMILES | test | system | setting | MIC |
| --- | --- | --- | --- | --- |
| c1ccc2[nH]c(CNCC34CC5CC(CC(C5)C3)C4)nc2c1 | – | ATCC 25922 | – | > 128 µg/mL |
| COC(=O)[C@H]1[C@H]2C[C@@H]3c4[nH]c5cc(OC)ccc5c4CCN3C[C@H]2C[C@@H](OC(=O)c2cc(OC)c(OC)c(OC)c2)[C@@H]1OC | – | tetracycline-resistant (pBR322) | – | > 128 µM |
